Experimental data pooled from the literature.
Values joined by “and” are separate records of one study, mostly repeats; a detail may differ. ± marks the error that the study gave.
Nuclear receptor subfamily 2 group C member 2 ligand-binding domain: Nuclear receptor subfamily 2 group C member 2, ligand-binding domain (Homo sapiens, UniProt P49116)
XPO1: Exportin-1 (XPO1, Homo sapiens, UniProt O14980)

| SMILES | target or system | test | test system | conditions | how to read | quantity | result |
| --- | --- | --- | --- | --- | --- | --- | --- |
| CSC1=NS(=O)(=O)c2ccccc21 | Pyruvate kinase PKLR (PKLR, Homo sapiens, UniProt P30613) | enzyme activity, activator | – | 10 µM | – | activity | inactive |
| CCCCN1CCCCC1C(=O)Nc1c(C)cccc1C (stereo not drawn) | Nuclear receptor subfamily 2 group C member 2 ligand-binding domain | SPR imaging | – | 600 nM | – | koff | 4.59e-07 s⁻¹ |
| Nc1ncnc2c1ncn2[C@@H]1O[C@H](COP(=O)(O)OP(=O)(O)O)[C@@H](O)[C@H]1O | ATP-sensitive inward rectifier potassium channel 1 (Rattus norvegicus, UniProt P35560) | channel open probability, inhibitor, inside-out patch clamp | – | pH 7.4, Mg2+-free, 1.6 mM | – | Hill coefficient | ~3 |
| O=C(COP(=O)(O)O)[C@@H](O)[C@H](O)[C@H](O)COP(=O)(O)O | XPO1 | thermal proteome profiling | HepG2 cell lysate | concentration not given, 57 over 37 °C | reference: compound over control | thermal stability ratio | 0.667 and 0.5 and 0.6 |
| COc1cc(-c2cc(C(C)=O)n3ccccc23)c(OC)cc1Cn1ccnc1 | Bromodomain testis-specific protein, BD1 (BRDT, Homo sapiens, UniProt Q58F21) | – | – | – | – | ΔTm | 1.3 °C |
| N[C@H](Cc1ccccc1)C(=O)O | PAL1 (Petroselinum crispum, UniProt P24481, Y110F) | binding, ITC | – | – | – | ΔG | -6.3 kcal/mol |
| Nc1ncnc2c1ncn2[C@@H]1O[C@H](C[C@@H](N)CC[C@H](N)C(=O)O)[C@@H](O)[C@H]1O | O-methyltransferase (Sorghum bicolor, UniProt A0A1B6PFV1) | isothermal titration calorimetry | – | concentration not given, apo protein | – | binding stoichiometry | 0.95 ± 0.012 sites |
| CCN1CCC[C@H]1CNC(=O)c1c(O)c(Cl)cc(Cl)c1OC | G-protein coupled bile acid receptor 1 (GPBAR1, Homo sapiens, UniProt Q8TDU6) | receptor activation, TANGO luminescence | – | concentration not given, unconfirmed screen | reference: vehicle control | log2 fold change | -0.345 |
| Cc1cc(-c2ccnc3[nH]cc(F)c23)cc(F)c1[C@@]1(O)[C@H](C)CN(C(=O)CN)C[C@@H]1C | AKT1 and AKT3 | ATP probe binding, KiNativ, measured: Lys1 site | HEK293T cell lysate | 10 µM | – | inhibition | 1.5% |
| CC[C@H](C)[C@@H]1NC(=O)[C@H](C)NC(=O)[C@H]([C@@H](C)CC)NC(=O)[C@H](CCC(N)=O)NC(=O)[C@H](C)NC(=O)[C@H](CCCNC(=N)N)NC(=O)[C@H](C(C)C)NC(=O)[C@H](CC(C)C)NC(=O)[C@H](CCC(=O)O)NC(=O)[C@H](CCCNC(=N)N)NC(=O)CNC(=O)[C@@H](NC(=O)[C@H](CC(C)C)NC(=O)[C@H](CCCCN)NC(=O)[C@@H](NC(=O)[C@@H](NC(=O)[C@H](CCC(=O)O)NC(=O)[C@H](CCC(=O)O)NC(=O)[C@H](CCSC)NC(=O)[C@H](Cc2c[nH]c3ccccc23)NC(=O)[C@H](CO)NC(=O)[C@@H](N)CC(=O)O)C(C)C)[C@@H](C)CC)CSSC[C@@H]2NC(=O)[C@@H](NC(=O)[C@H](CCCCN)NC(=O)[C@H](CC(N)=O)NC(=O)[C@H](C)NC(=O)[C@H](CC(C)C)NC(=O)[C@H](C)NC(=O)[C@H](CO)NC(=O)[C@H](Cc3ccc(O)cc3)NC(=O)[C@H](CC(C)C)NC(=O)[C@H](CCC(N)=O)NC(=O)c3ccc(-c4c5ccc(=[N+](C)C)cc-5oc5cc(N(C)C)ccc45)c(C(=O)[O-])c3)CSSC[C@H](NC(=O)CNC(=O)[C@H](C(C)C)NC(=O)[C@H](Cc3c[nH]cn3)NC2=O)C(=O)N[C@@H]([C@@H](C)O)C(=O)N[C@@H](CCCCN)C(=O)N[C@@H](CCCNC(=N)N)C(=O)N[C@@H](CO)C(=O)N[C@@H](CC(C)C)C(=O)N[C@@H](C)C(=O)N[C@@H](CCCNC(=N)N)C(=O)N[C@@H](Cc2ccccc2)C(=O)N[C@H](C(=O)O)CSSC[C@@H](C(=O)NCC(=O)N[C@@H](CCSC)C(=O)N[C@@H](CO)C(=O)N[C@H](C(=O)N[C@@H](Cc2c[nH]c3ccccc23)C(=O)N[C@@H](CO)C(=O)O)[C@@H](C)O)NC1=O | Relaxin receptor 1 (RXFP1, Homo sapiens, UniProt Q9HBX9) | binding, NanoBRET | – | together with: relaxin 1 µM | – | dissociation plateau | 23.4% |
| N#Cc1ccn2c(-c3ccncc3)c(-c3ccc(F)cc3)nc2c1 | Serine/threonine-protein kinase CBK1 (CBK1, Candida albicans, UniProt Q5AP53) | kinase binding, competitor, MIB/MS competition, measured: CBK1 | Candida albicans cell lysate | 1 µM | reference: DMSO | log2 fold change | 0.024 |
| CC(C)OCCn1c(=S)[nH]c(=O)c2[nH]ccc21 | Myeloperoxidase (Mus musculus, UniProt P11247) | ELISA, measured: myeloperoxidase | mice, zymosan or thioglycolate peritonitis, peritoneal lavage | 30 mg/kg | – | protein level | 1820 ng/mL and 2630 ng/mL and 2140 ng/mL |
| CCC(=O)NS(=O)(=O)c1ccc(-c2c(-c3ccccc3)noc2C)cc1 | COS-7 | – | – | 100 µM, 24 h, 0.1% DMSO, unit not given | reference: control | necrosis | 0.71 ± 0.06 |
| COc1cc(-c2cncc3c2CN(C)Cc2cc(N4CCNCC4)ccc2-3)cc(OC)c1OC | Epithelial discoidin domain-containing receptor 1 (DDR1, Homo sapiens, UniProt Q08345) | kinase activity | – | 1 µM, human enzyme, together with: ATP 10 µM | reference: DMSO control | remaining activity | 29% |
| CC(C)C[C@@H]1NC(=O)[C@H](C(C)C)NC(=O)CNC(=O)[C@H](CC(N)=O)NC(=O)[C@@H]2CCCN2C(=O)[C@H](Cc2ccc(O)cc2)NC(=O)[C@H](CCCNC(=N)N)NC(=O)[C@H](Cc2ccccc2)NC(=O)[C@@H](NC(=O)[C@H](CCCCN)NC(=O)[C@@H]2CCCN2C(=O)[C@H](C)NC(=O)[C@H](C)NC(=O)[C@@H](N)Cc2ccc(O)cc2)CSSC[C@@H](C(=O)N[C@H](C(N)=O)[C@@H](C)O)NC(=O)[C@H](C)NC1=O | Alpha-2-HS-glycoprotein, asialo (AHSG, Bos taurus, UniProt P12763) | ITC | – | concentration not given, together with: asialofetuin | – | binding enthalpy | -1.78 kcal/mol |
| CC[S+]([O-])c1nc(-c2ccccc2)cc(C(F)(F)F)n1 (stereo not drawn) | XPO1 | nuclear export, high content imaging | HeLa Kyoto reporter | 15.8 µM, 2 h | – | cells with nuclear reporter | 2.8% and 0.69% and 3.46% |
| Nc1nc2c(ncn2[C@@H]2O[C@H](COP(=O)(O)OP(=O)(O)O)[C@@H](O)[C@H]2O)c(=O)[nH]1 | GUK1 (Homo sapiens, UniProt Q16774, R137A) | binding, ITC | – | together with: GMP | – | -TΔS | 3.17 kcal/mol |
| CC(Oc1ccccc1)C(=O)NCc1ccccn1 (stereo not drawn) | Coatomer subunit beta', WD repeat domain (Homo sapiens, UniProt P35606) | binding, affinity selection mass spectrometry | – | – | reference: other proteins in batch | fold enrichment | 0.718 |

| SMILES | target or system | test | test system | conditions | how to read | quantity | result |
| --- | --- | --- | --- | --- | --- | --- | --- |
| C=CC(=O)N1CCC(COCC(=O)N2CCN(c3nc(-c4cnc(N)nc4C(F)F)nc(N4CCOC[C@@H]4C)n3)CC2)CC1 | Testis-specific serine/threonine-protein kinase 1 (TSSK1B, Homo sapiens, UniProt Q9BXA7) | KINOMEscan | – | 1 µM | – | remaining binding | 100% |
| C[C@H](CCC(=O)O)[C@H]1CC[C@H]2[C@@H]3CC[C@@H]4C[C@H](O)CC[C@]4(C)[C@H]3CC[C@]12C | Nuclear receptor subfamily 2 group C member 2 ligand-binding domain | SPR imaging | – | 600 nM | – | koff | 1.62e-06 s⁻¹ |
| CCCCC[C@H](O)/C=C/[C@H]1[C@H](O)CC(=O)[C@@H]1C/C=C\CCCC(=O)O | Prostaglandin E2 receptor EP1 subtype (PTGER1, Homo sapiens, UniProt P34995, T186A) | IP1 accumulation, agonist | AD293 | 1 h, EP1 T186A mutant | – | Emax | 82.8 ± 6.75% |
| CCCC[C@H](NC(=O)[C@H](C)c1c(C)[nH]c2ccc(O)cc12)c1ncc(-c2cc3ccccc3nc2OC)[nH]1 | 5-hydroxytryptamine receptor 1A (HTR1A, Homo sapiens, UniProt P08908) | – | – | 10 µM | – | effect | 75% |
| O=C1c2ccccc2CCCN1CCCCN1CCN(c2ccccn2)CC1 | 5-hydroxytryptamine receptor 4 (HTR4, Homo sapiens, UniProt Q13639) | radioligand binding | – | concentration not given | – | inhibition | 13.2% |
| Nc1ncnc2c1ncn2[C@@H]1O[C@H](COP(=O)(O)CP(=O)(O)OP(=O)(O)O)[C@@H](O)[C@H]1O | P2X purinoceptor 1 (P2RX1, Homo sapiens, UniProt P51575, K136W) | saturation binding | HEK293 | 25 nM | – | specific binding | 1270 CCPM and 1700 CCPM |
| CCCC[C@H]1CN(c2cccc(OC(F)(F)F)c2)C(=O)CN1Cc1cncn1Cc1ccc(F)c(C#N)c1 | Cryptococcus neoformans farnesyltransferase | enzyme activity, inhibitor, fluorescence | – | together with: 1 µM FPP, 0.5 µM dansylated peptide | – | IC50 | 180 ± 100 nM |
| Nc1ccc(C(=O)O)c(O)c1 | Nuclear receptor subfamily 2 group C member 2 ligand-binding domain | SPR imaging | – | 600 nM | – | koff | 2.2e-05 s⁻¹ |
| Nc1nc2c(ncn2[C@@H]2O[C@H](COP(=O)(O)O)[C@@H](O)[C@H]2O)c(=O)[nH]1 | GUK1 (Homo sapiens, UniProt Q16774) | enzyme activity, NADH-coupled | – | 125 µM | – | reaction rate | 36 s⁻¹ and 48.3 s⁻¹ and 42.9 s⁻¹ |
| O=C(O)c1ccc(Nc2ncc3c(n2)-c2ccc(Cl)cc2C(c2c(F)cccc2F)=NC3)cc1 | human DCAMKL2(h) | kinase activity | – | 1 µM | – | remaining activity | 103% |
| Cc1nc(CSc2nc(SCc3ccc(C(C)C)cc3)nc(=O)[nH]2)cs1 | DNA topoisomerase 2-alpha (TOP2A, Homo sapiens, UniProt P11388) | decatenation | – | 7.8 µM | – | mean decatenated DNA | 50.7% |
| CN1CCN(C2=Nc3ccccc3Oc3ccc(Cl)cc32)CC1 | Nuclear receptor subfamily 2 group C member 2 ligand-binding domain | SPR imaging | – | 600 nM | – | koff | 8.88e-07 s⁻¹ |
| C[C@H](N)C(=O)N[C@@H](CCCNC(=N)N(C)C)C(=O)N[C@H](C(=O)N[C@@H](CCCCN)C(=O)N[C@@H](CCC(N)=O)C(=O)N[C@H](C(=O)N[C@@H](C)C(=O)N[C@@H](CCCNC(=N)N)C(=O)N[C@@H](CCCCN)C(=O)N[C@@H](CO)C(=O)O)[C@@H](C)O)[C@@H](C)O | Transcriptional regulator ATRX (ATRX, Homo sapiens, UniProt P46100, F284Y/K251R) | isothermal titration calorimetry | – | concentration not given, pH 7.5, 25.0 °C | – | binding enthalpy | -4.8 kcal/mol |
| CC1(C)CC2(C)OC(=O)NC2(C)c2ccccc21 (stereo not drawn) | S-phase kinase-associated protein 1 (SKP1, Homo sapiens, UniProt P63208) | binding, affinity selection mass spectrometry | – | – | reference: other proteins in batch | fold enrichment | 0.948 |
| O=S(=O)(O)C1CCNCC1 | Sodium- and chloride-dependent taurine transporter (SLC6A6, Homo sapiens, UniProt P31641, G62A) | binding, microscale thermophoresis | – | 61 nM, room temperature, together with: 50 nM labelled protein | higher = more binding | normalised MST signal | 0.015 |
| COc1cc[nH]c1/C=C1\C(=O)Nc2ccc([N+](=O)[O-])c(N3CC[C@@H](O)C3)c21 | Serine/threonine protein kinase UL97 (Human herpesvirus 5, UniProt P16788) | high molecular weight UL97, western blot | infected cells | – | – | UL97 autophosphorylation | no effect |
| CC(=O)c1ccc2cc(S(=O)(=O)Nc3ccc(Br)cc3)ccc2c1 | Signal transducer and activator of transcription 3 (STAT3, Homo sapiens, UniProt P40763) | tyrosine phosphorylation, inhibitor, ELISA, measured: phospho-Tyr705 | – | – | – | Hill slope | -0.534 |
| CO[C@H]1O[C@H](COS(=O)(=O)O)[C@@H](O[C@@H]2O[C@@H](C(=O)O)[C@@H](O[C@H]3O[C@H](COS(=O)(=O)O)[C@@H](O[C@@H]4O[C@H](C(=O)O)[C@@H](O[C@H]5O[C@H](COS(=O)(=O)O)[C@@H](O)[C@H](O)[C@H]5NS(=O)(=O)O)[C@H](O)[C@H]4O)[C@H](OS(=O)(=O)O)[C@H]3NS(=O)(=O)O)[C@H](O)[C@H]2OS(=O)(=O)O)[C@H](O)[C@H]1NS(=O)(=O)O | Beta-2-glycoprotein 1, domain V (APOH, Homo sapiens, UniProt P02749, V266L) | isothermal titration calorimetry | – | 298 K, together with: 100 mM NaCl | – | binding free energy ΔG | -6.59 kcal/mol |

For quick reference, copied from above:
| SMILES | target or system | test | test system | conditions | how to read | quantity | result |
| --- | --- | --- | --- | --- | --- | --- | --- |
| N[C@H](Cc1ccccc1)C(=O)O | PAL1 (Petroselinum crispum, UniProt P24481, Y110F) | binding, ITC | – | – | – | ΔG | -6.3 kcal/mol |
| Nc1ncnc2c1ncn2[C@@H]1O[C@H](C[C@@H](N)CC[C@H](N)C(=O)O)[C@@H](O)[C@H]1O | O-methyltransferase (Sorghum bicolor, UniProt A0A1B6PFV1) | isothermal titration calorimetry | – | concentration not given, apo protein | – | binding stoichiometry | 0.95 ± 0.012 sites |
| CCN1CCC[C@H]1CNC(=O)c1c(O)c(Cl)cc(Cl)c1OC | G-protein coupled bile acid receptor 1 (GPBAR1, Homo sapiens, UniProt Q8TDU6) | receptor activation, TANGO luminescence | – | concentration not given, unconfirmed screen | reference: vehicle control | log2 fold change | -0.345 |
